{"data": "Experimental data gathered from unrelated publications", "note": "Compare with care: the assays were run in different laboratories. Values joined by “and” are separate records of one study, mostly repeats; a detail may differ. ± marks the error that the study gave."}
{"Compound": "CC[C@H](C)[C@H](NC(=O)[C@H](CC(C)C)NC(=O)[C@H](CCCNC(=N)N)NC(=O)[C@@H](N)CCCNC(=N)N)C(=O)N[C@@H](CCCNC(=N)N)C(=O)N[C@@H](CCCCN)C(=O)N[C@@H](CC(C)C)C(=O)N[C@@H](CCCCN)C(=O)NCC(=O)N[C@@H](CC(C)C)C(=O)N[C@@H](CCCCN)C(=O)N[C@@H](CCCCN)C(=O)N[C@@H](Cc1ccc(O)cc1)C(=O)N[C@@H](CC(C)C)C(=O)N[C@@H](Cc1ccc(O)cc1)C(=O)N[C@@H](Cc1ccccc1)C(=O)N[C@@H](CCCCN)C(=O)N[C@@H](CC(C)C)C(=O)N[C@@H](CCC(N)=O)C(=O)N[C@@H](CC(C)C)C(=O)N[C@@H](CC(C)C)C(=O)N[C@@H](CCCCN)C(=O)N[C@@H](CCCCN)C(N)=O", "assay": "LC-MS", "system": "25% human serum", "setting": "200 µM, 60 h, 37 °C", "endpoint": "remaining intact peptide", "result": "40 ± 5%"}
{"Compound": "CC(C)C[C@@H]1NC(=O)CNC(=O)[C@H](CC(N)=O)NC(=O)[C@H](CCCNC(=N)N)NC(=O)[C@H]([C@@H](C)O)NC(=O)[C@@H]2CSSC[C@@H]3NC(=O)[C@H](CCCCN)NC(=O)CNC(=O)CNC(=O)[C@H](C(C)C)NC(=O)[C@@H]4CSSC[C@H](NC(=O)[C@H]([C@@H](C)O)NC(=O)[C@H](CSSC[C@H](NC(=O)[C@H](C(C)C)NC(=O)[C@@H]5CCCN5C1=O)C(=O)NCC(=O)N[C@@H](CCC(=O)O)C(=O)N[C@@H]([C@@H](C)O)C(=O)N4)NC(=O)CNC(=O)[C@@H]1CCCN1C(=O)[C@H]([C@@H](C)O)NC(=O)[C@H](CC(N)=O)NC3=O)C(=O)N[C@@H](CO)C(=O)N[C@@H](Cc1c[nH]c3ccccc13)C(=O)N1CCC[C@H]1C(=O)N[C@@H](C(C)C)C(=O)N2", "assay": "HPLC", "system": "ammonium bicarbonate 0.1 M", "setting": "180 µM, 7 days, pH 9.0, 37 °C, deamidation stability", "endpoint": "remaining peptide", "result": "72.7 ± 2.9%"}
{"Compound": "CC(C)(C)[C@H](NC(=O)C(F)(F)F)C(=O)N1C[C@H]2[C@@H]([C@H]1C(=O)N[C@H](C#N)C[C@@H]1CCNC1=O)C2(C)C", "system": "human liver microsomes", "setting": "60 min", "endpoint": "remaining compound", "result": "101%"}
{"Compound": "CSCC[C@H](NC(=O)[C@H](N)Cc1ccccc1)C(=O)N[C@@H](CCCNC(=N)N)C(=O)N[C@@H](Cc1c[nH]c2ccccc12)C(=O)N[C@@H](CO)C(=O)N[C@@H](CCCNC(=N)N)C(=O)N[C@@H](CCCCN)C(=O)N[C@@H](CCSC)C(=O)N1CCC[C@H]1C(=O)N[C@@H](CS)C(=O)N[C@H](C(=O)N[C@@H](CO)C(N)=O)C(C)C", "assay": "12G5 competition, SUP-T1 cells", "system": "human plasma", "setting": "20 µM, 2 h, 37 °C", "endpoint": "remaining activity", "result": "70 ± 5%"}
{"Compound": "CC(=O)OC/C(C)=C/CCP(=O)(OCOC(=O)CC1CCOCC1)Oc1cccc2ccccc12 (centres unmarked)", "system": "50% Sprague-Dawley rat plasma", "setting": "100 µM, 2 h, pH 7.5, 37 °C", "endpoint": "remaining compound", "result": "13%"}
{"Compound": "CCC[C@@](N)(CO)CCc1ccc(OCCCCCC(C)C)cc1", "system": "mouse liver microsomes", "setting": "1 h", "endpoint": "remaining compound", "result": "42%"}
{"Compound": "CC(C)C[C@@H]1NC(=O)CNC(=O)[C@H](CC(N)=O)NC(=O)[C@H](CCCNC(=N)N)NC(=O)[C@H]([C@@H](C)O)NC(=O)[C@@H]2CSSC[C@@H]3NC(=O)[C@H]([C@@H](C)O)NC(=O)CNC(=O)CNC(=O)[C@H](C(C)C)NC(=O)[C@@H]4CSSC[C@H](NC(=O)[C@H]([C@@H](C)O)NC(=O)[C@H](CSSC[C@H](NC(=O)[C@H](C(C)C)NC(=O)[C@@H]5CCCN5C1=O)C(=O)NCC(=O)N[C@@H](CCC(=O)O)C(=O)N[C@@H]([C@@H](C)O)C(=O)N4)NC(=O)CNC(=O)[C@@H]1CCCN1C(=O)[C@H]([C@@H](C)O)NC(=O)[C@H](CCCCN)NC3=O)C(=O)N[C@@H](CO)C(=O)N[C@@H](Cc1c[nH]c3ccccc13)C(=O)N1CCC[C@H]1C(=O)N[C@@H](C(C)C)C(=O)N2", "assay": "HPLC", "system": "ammonium bicarbonate 0.1 M", "setting": "180 µM, 14 days, pH 9.0, 37 °C, deamidation stability", "endpoint": "remaining peptide", "result": "57.3 ± 6.3%"}
{"Compound": "CC(C)[C@@H]1NC(=O)CNC(=O)[C@H](CC(N)=O)NC(=O)[C@H](CCCNC(=N)N)NC(=O)[C@H](Cc2ccc(O)cc2)NC(=O)[C@H](C(C)C)NC(=O)[C@@H](NC(=O)[C@@H](NC(=O)[C@H](CC(N)=O)NC(=O)[C@H](Cc2c[nH]c3ccccc23)NC(=O)[C@H](C)NC(=O)[C@H](Cc2ccccc2)NC(=O)CN)C(C)C)CSSC[C@@H](C(=O)N[C@@H](Cc2cnc[nH]2)C(=O)N[C@@H](CCCNC(=N)N)C(=O)N[C@@H](CCCNC(=N)N)C(=O)N[C@@H](C)C(=O)N[C@@H](CC(N)=O)C(N)=O)NC(=O)[C@H](C(C)C)NC(=O)[C@H](CCCNC(=N)N)NC1=O", "assay": "HPLC", "system": "mouse mammary gland homogenate", "setting": "2560 µM, 6.00 h, 37 °C, 50 mg/mL tissue", "endpoint": "remaining peptide", "result": "58.8% and 57.1% and 53.3%"}
{"Compound": "CC[C@@H](C)[C@@H](NC(=O)[C@@H](Cc1ccc(O)cc1)NC(=O)[C@H]1CCCN1C(=O)[C@@H](CCCNC(=N)N)NC(=O)[C@H](N)Cc1c[nH]cn1)C(=O)N[C@H](C)C(=O)N[C@H](Cc1c[nH]cn1)C(=O)N[C@H](CCCNC(=N)N)C(=O)N[C@H](CCCCNC(=O)c1cccc(S(=O)(=O)F)c1)C(=O)N[C@H](Cc1ccc(O)cc1)C(=O)N[C@H](CO)C(=O)N[C@H](Cc1ccccc1)C(N)=O", "system": "10% human serum", "setting": "0.5 h", "endpoint": "remaining compound", "result": "112% and 113%"}
{"Compound": "CC[C@H](C)[C@H](N)C(=O)N[C@H](CC(C)C)C(=O)N[C@@H](CCCNC(=N)N)C(=O)N[C@@H](Cc1c[nH]c2ccccc12)C(=O)N[C@@H](CO)C(=O)N[C@@H](CCCNC(=N)N)C(=O)N[C@@H](CCCCN)C(=O)N[C@@H](CC(C)C)C(=O)N1CCC[C@H]1C(=O)N[C@@H](CS)C(=O)N[C@H](C(=O)N[C@@H](CO)C(N)=O)C(C)C", "assay": "12G5 competition, SUP-T1 cells", "system": "human plasma", "setting": "concentration not given, 8 h", "endpoint": "remaining activity", "result": "57 ± 11%"}
{"Compound": "CC(C)C[C@@H]1NC(=O)CNC(=O)[C@H](CC(N)=O)NC(=O)[C@H](CCCNC(=N)N)NC(=O)[C@H]([C@@H](C)O)NC(=O)[C@@H]2CSSC[C@@H]3NC(=O)[C@H]([C@@H](C)O)NC(=O)CNC(=O)CNC(=O)[C@H](C(C)C)NC(=O)[C@@H]4CSSC[C@H](NC(=O)[C@H]([C@@H](C)O)NC(=O)[C@H](CSSC[C@H](NC(=O)[C@H](CCCCN)NC(=O)[C@@H]5CCCN5C1=O)C(=O)NCC(=O)N[C@@H](CCC(=O)O)C(=O)N[C@@H]([C@@H](C)O)C(=O)N4)NC(=O)CNC(=O)[C@@H]1CCCN1C(=O)[C@H]([C@@H](C)O)NC(=O)[C@H](CC(N)=O)NC3=O)C(=O)N[C@@H](CO)C(=O)N[C@@H](Cc1c[nH]c3ccccc13)C(=O)N1CCC[C@H]1C(=O)N[C@@H](C(C)C)C(=O)N2", "assay": "HPLC", "system": "ammonium bicarbonate 0.1 M", "setting": "180 µM, 7 days, pH 9.0, 37 °C, deamidation stability", "endpoint": "remaining peptide", "result": "53.3 ± 2.3%"}
{"Compound": "CCCCN1CCC(COC(=O)c2ccc(N)c(O[11CH3])c2)CC1", "system": "phosphate buffer", "setting": "30 min", "endpoint": "remaining parent compound", "result": "99.5%"}
{"Compound": "CC(C)[C@@H]1NC(=O)[C@@H]2CSSC[C@@H]3NC(=O)[C@H]([C@@H](C)O)NC(=O)[C@@H]4CSSC[C@H](NC(=O)[C@H](C(C)C)NC(=O)[C@@H]5CCCN5C(=O)[C@H](CCCCN)NC(=O)CNC(=O)[C@H](CC(N)=O)NC(=O)[C@H](CCCNC(=N)N)NC(=O)[C@H]([C@@H](C)O)NC(=O)[C@H](CSSC[C@H](NC(=O)[C@H]([C@@H](C)O)NC(=O)CNC(=O)CNC1=O)C(=O)N[C@@H](CC(N)=O)C(=O)N[C@@H]([C@@H](C)O)C(=O)N1CCC[C@H]1C(=O)NCC(=O)N4)NC(=O)[C@H](C(C)C)NC(=O)[C@@H]1CCCN1C(=O)[C@H](Cc1c[nH]c4ccccc14)NC(=O)[C@H](CO)NC3=O)C(=O)NCC(=O)N[C@@H](CCC(=O)O)C(=O)N[C@@H]([C@@H](C)O)C(=O)N2", "assay": "HPLC", "system": "ammonium bicarbonate 0.1 M", "setting": "180 µM, 14 days, pH 9.0, 37 °C, deamidation stability", "endpoint": "remaining peptide", "result": "41.4 ± 1.9%"}
{"Compound": "CSCC[C@H](NC(=O)[C@H](CCCCN)NC(=O)[C@H](CCCNC(=N)N)NC(=O)[C@H](CO)NC(=O)[C@H](Cc1c[nH]c2ccccc12)NC(=O)[C@H](CCCNC(=N)N)NC(=O)[C@H](CC(C)C)NC(=O)[C@@H](CO)NC(C)=O)C(=O)N1CCC[C@H]1C(=O)N[C@@H](CS)C(=O)N[C@H](C(=O)N[C@@H](CO)C(N)=O)C(C)C", "assay": "12G5 competition, SUP-T1 cells", "system": "human plasma", "setting": "concentration not given, 8 h", "endpoint": "remaining activity", "result": "52 ± 2%"}
{"note": "Repeated from above:"}
{"Compound": "CC(C)(C)[C@H](NC(=O)C(F)(F)F)C(=O)N1C[C@H]2[C@@H]([C@H]1C(=O)N[C@H](C#N)C[C@@H]1CCNC1=O)C2(C)C", "system": "human liver microsomes", "setting": "60 min", "endpoint": "remaining compound", "result": "101%"}
